Published values pooled from the literature.
Parts stem from different laboratories: compare values within a part only.
UniProt P36897, sequence (whole entry, looked up): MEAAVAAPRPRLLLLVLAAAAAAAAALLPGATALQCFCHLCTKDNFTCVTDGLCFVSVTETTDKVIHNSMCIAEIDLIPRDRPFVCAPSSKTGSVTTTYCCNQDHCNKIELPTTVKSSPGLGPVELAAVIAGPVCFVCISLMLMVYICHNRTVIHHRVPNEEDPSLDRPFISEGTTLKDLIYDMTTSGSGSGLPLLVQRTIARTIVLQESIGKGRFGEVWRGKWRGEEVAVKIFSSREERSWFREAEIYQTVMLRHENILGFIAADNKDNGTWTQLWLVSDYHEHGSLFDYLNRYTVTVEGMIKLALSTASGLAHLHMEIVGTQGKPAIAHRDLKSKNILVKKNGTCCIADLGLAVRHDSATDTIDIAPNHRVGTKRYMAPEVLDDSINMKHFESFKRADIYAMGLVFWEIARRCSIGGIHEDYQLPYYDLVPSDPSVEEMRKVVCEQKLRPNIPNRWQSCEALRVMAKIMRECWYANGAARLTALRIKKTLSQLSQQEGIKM
UniProt P50750, sequence (whole entry, looked up): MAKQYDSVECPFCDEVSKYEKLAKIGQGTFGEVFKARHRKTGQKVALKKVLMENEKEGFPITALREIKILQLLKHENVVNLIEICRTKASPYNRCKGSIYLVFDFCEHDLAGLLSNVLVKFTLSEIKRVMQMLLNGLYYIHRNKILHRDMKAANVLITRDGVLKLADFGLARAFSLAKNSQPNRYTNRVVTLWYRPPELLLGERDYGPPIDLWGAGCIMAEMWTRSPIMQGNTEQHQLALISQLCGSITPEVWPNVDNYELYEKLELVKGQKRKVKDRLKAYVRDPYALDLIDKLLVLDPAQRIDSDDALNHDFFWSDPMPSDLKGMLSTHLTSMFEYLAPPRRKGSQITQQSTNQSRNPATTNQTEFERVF
UniProt O14936, sequence (whole entry, looked up): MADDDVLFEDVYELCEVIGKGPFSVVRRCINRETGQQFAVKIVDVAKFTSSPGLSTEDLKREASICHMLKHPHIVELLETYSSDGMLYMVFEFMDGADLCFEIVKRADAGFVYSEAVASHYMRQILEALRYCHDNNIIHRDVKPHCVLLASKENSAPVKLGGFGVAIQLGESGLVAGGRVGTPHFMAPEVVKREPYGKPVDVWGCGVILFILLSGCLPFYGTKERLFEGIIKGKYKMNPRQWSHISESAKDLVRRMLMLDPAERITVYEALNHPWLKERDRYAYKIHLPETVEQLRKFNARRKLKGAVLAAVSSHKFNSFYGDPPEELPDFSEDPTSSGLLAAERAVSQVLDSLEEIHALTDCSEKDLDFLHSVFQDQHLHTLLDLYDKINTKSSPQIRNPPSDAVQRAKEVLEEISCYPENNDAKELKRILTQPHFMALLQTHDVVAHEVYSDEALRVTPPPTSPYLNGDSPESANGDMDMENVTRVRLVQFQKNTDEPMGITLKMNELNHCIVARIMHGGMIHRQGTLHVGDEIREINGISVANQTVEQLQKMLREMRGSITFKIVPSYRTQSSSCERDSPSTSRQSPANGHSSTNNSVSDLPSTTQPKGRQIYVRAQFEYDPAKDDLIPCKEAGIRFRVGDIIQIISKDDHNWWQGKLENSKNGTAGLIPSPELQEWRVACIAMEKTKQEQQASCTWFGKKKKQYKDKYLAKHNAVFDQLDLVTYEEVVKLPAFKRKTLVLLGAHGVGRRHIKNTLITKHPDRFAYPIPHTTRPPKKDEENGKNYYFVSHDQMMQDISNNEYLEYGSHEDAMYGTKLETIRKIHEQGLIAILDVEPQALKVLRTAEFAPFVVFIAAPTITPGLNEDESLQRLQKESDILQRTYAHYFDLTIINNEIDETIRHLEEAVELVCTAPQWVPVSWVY
UniProt Q9NRP7, sequence (whole entry, looked up): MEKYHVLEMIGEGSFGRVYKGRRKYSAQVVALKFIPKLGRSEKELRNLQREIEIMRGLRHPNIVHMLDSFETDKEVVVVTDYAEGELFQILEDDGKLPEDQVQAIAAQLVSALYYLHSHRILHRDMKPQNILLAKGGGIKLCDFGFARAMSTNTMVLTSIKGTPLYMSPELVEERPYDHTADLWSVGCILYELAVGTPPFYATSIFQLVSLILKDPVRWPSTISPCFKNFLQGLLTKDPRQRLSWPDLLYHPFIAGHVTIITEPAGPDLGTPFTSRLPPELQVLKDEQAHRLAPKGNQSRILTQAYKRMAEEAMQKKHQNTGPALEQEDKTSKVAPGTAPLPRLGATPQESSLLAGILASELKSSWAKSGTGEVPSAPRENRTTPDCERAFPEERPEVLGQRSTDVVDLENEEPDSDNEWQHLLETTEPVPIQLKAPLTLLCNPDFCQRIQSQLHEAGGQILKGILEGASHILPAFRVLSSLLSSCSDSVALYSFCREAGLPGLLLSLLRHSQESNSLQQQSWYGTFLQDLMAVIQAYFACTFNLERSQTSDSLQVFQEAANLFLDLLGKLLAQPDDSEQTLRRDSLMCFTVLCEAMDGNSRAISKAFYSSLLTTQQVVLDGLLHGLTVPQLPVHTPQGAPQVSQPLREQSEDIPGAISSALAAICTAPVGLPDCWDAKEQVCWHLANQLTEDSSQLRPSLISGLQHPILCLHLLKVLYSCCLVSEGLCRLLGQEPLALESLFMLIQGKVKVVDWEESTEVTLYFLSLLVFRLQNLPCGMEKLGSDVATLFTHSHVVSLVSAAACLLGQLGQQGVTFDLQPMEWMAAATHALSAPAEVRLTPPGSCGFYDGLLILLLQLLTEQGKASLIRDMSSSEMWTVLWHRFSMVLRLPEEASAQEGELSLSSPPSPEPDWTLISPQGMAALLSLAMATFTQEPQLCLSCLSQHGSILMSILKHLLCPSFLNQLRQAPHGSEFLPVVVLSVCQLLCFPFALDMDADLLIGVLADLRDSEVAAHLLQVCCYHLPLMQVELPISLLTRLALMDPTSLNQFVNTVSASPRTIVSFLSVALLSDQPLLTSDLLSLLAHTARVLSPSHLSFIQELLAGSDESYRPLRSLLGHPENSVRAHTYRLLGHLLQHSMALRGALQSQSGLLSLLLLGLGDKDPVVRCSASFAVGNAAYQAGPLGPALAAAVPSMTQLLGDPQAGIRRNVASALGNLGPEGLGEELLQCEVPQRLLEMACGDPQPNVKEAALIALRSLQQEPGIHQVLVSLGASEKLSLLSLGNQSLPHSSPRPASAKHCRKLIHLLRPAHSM
UniProt P43403, sequence (whole entry, looked up): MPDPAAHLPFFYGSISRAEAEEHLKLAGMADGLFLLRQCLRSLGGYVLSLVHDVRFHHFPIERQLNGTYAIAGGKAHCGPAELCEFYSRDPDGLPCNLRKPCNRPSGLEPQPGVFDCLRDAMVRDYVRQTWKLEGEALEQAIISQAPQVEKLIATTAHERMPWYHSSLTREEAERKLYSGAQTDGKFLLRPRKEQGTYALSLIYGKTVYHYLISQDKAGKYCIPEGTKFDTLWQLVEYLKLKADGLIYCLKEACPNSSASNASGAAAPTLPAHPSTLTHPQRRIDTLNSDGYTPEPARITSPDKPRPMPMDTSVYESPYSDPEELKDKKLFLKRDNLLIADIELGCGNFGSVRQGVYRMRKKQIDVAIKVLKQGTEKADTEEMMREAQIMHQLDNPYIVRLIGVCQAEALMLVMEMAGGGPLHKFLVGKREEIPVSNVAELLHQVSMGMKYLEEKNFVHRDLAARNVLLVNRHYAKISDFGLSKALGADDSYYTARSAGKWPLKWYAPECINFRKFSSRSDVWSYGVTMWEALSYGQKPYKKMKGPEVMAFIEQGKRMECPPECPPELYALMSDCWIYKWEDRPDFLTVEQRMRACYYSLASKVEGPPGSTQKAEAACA

Study 1
SMILES: O=C1c2ccccc2-c2n[nH]c3cccc1c23
Observed: enzyme activity
Action: inhibitor
Tested at: 0.5 µM
Reference: control
| target | remaining activity [%] |
| --- | --- |
| KDR (Homo sapiens, UniProt P35968) | 89.9 |
| RPS6KA4 (Homo sapiens, UniProt O75676) | 87.4 |
| DCLK2 (Homo sapiens, UniProt Q8N568) | 88.6 |
| Cyclin-dependent kinase 9, with cyclin K (CDK9, Homo sapiens, UniProt P50750) | 96 |

Study 2
Target: Protein C-ets-1 (ETS1, Homo sapiens, UniProt P14921, residues 1-441, K379A, full length assumed)
Technique: protein-binding microarray
Molecule type: double-stranded DNA, one strand shown
Medium: in vitro
Tested at: not given
Notes: k-mer, scored over probes, only values ≥0.25
Reading: higher = stronger binding
Residues (chain): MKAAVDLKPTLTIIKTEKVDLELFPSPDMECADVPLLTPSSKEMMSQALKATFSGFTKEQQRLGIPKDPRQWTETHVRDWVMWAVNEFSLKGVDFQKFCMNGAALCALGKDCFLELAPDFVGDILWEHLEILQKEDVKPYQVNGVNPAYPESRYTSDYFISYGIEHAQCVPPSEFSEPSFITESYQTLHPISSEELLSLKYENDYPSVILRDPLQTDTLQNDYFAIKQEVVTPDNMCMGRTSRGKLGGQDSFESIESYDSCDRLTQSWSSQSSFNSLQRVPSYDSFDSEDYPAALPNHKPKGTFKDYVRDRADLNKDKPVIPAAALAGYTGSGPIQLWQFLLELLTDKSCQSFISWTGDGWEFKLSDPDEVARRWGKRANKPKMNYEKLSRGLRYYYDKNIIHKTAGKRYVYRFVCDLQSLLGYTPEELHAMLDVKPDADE
| Strand | E-score |
| --- | --- |
| AGTCCCGG | 0.355 |
| GTGACGAA | 0.258 |
| GCCCCGCC | 0.359 |
| AAACCCCG | 0.268 |
| CCGGTCAG | 0.356 |
| CGGATATA | 0.347 |
| ACTGTATG | 0.252 |
| CCGGGGGC | 0.329 |

Study 3
SMILES: CCS(=O)(=O)c1cc2cc(C[C@@](O)(CC(C)(C)c3ccc(F)cc3C(N)=O)C(F)(F)F)[nH]c2cn1
Observed: cell-free assay
Technique: competition with immobilised ligand
Tested at: 1 µM
| target | remaining binding |
| --- | --- |
| NEK5 (Homo sapiens, UniProt Q6P3R8) | 100% |
| CDK11A (Homo sapiens, UniProt Q9UQ88) | 100% |
| RIOK1 (Homo sapiens, UniProt Q9BRS2) | 50% |
| CASK (Homo sapiens, UniProt O14936) | 100% |
| HCK (Homo sapiens, UniProt P08631) | 100% |
| ZAP70 (Homo sapiens, UniProt P43403) | 72% |
| TBK1 (Homo sapiens, UniProt Q9UHD2) | 87% |
| GSK3A (Homo sapiens, UniProt P49840) | 100% |
| STK36 (Homo sapiens, UniProt Q9NRP7) | 98% |
| TGFBR1 (Homo sapiens, UniProt P36897) | 100% |
| MKNK2 (Homo sapiens, UniProt Q9HBH9) | 87% |

Study 4
Target: Sal-like protein 4, full length isoform A (SALL4, Homo sapiens, UniProt Q9UJQ4, residues 1-1053)
UniProt Q9UJQ4, sequence (whole entry, looked up): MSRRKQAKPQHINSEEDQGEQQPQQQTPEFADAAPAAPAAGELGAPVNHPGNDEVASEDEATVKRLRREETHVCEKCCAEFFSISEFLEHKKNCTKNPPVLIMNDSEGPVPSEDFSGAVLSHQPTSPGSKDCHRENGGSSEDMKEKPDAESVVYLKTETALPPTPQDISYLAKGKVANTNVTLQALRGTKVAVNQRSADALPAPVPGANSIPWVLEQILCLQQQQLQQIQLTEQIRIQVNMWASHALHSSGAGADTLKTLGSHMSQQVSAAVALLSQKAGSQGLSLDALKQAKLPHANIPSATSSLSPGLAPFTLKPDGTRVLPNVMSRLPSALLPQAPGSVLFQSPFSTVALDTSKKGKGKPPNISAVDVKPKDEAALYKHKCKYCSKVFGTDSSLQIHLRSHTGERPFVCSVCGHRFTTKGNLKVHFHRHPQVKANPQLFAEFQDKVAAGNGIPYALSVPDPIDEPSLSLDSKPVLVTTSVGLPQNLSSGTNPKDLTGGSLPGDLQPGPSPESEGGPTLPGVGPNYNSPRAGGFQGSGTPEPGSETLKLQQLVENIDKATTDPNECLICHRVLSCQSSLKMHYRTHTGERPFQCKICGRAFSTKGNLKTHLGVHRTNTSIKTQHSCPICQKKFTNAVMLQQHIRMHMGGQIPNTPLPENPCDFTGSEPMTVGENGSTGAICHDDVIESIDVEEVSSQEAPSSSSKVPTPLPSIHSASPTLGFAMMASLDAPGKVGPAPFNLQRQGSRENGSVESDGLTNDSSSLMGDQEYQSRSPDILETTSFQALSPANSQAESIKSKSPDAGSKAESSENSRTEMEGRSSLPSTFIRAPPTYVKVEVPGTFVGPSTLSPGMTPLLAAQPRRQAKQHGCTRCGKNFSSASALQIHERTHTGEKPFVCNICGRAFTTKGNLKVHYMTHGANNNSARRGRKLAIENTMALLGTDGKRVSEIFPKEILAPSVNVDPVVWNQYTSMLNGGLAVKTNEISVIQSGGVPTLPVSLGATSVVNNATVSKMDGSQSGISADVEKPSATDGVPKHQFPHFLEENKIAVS
Technique: universal PBM
Molecule type: double-stranded DNA, one strand shown
Medium: in vitro
Tested at: 600 nM
Notes: 8-mer, flanks averaged, mean of replicates
Reading: higher = stronger binding
| Strand | E-score |
| --- | --- |
| CGATGAGC | -0.242 |
| TAGGTGAA | 0.0661 |
| AAAACGGA | 0.0391 |
| CGCAGTAG | -0.106 |
| AAGCGGGG | -0.113 |
| CGGACAGA | -0.301 |
| CCACTAAG | -0.192 |
| AATGCCGC | -0.187 |

For quick reference, copied from above (study 1):
| target | remaining activity [%] |
| --- | --- |
| KDR (Homo sapiens, UniProt P35968) | 89.9 |
| RPS6KA4 (Homo sapiens, UniProt O75676) | 87.4 |
